Measurements gathered from unrelated publications.
Each line is one published result; not all experiments were run side by side.
Sequence of UniProt Q13464 (whole entry, looked up): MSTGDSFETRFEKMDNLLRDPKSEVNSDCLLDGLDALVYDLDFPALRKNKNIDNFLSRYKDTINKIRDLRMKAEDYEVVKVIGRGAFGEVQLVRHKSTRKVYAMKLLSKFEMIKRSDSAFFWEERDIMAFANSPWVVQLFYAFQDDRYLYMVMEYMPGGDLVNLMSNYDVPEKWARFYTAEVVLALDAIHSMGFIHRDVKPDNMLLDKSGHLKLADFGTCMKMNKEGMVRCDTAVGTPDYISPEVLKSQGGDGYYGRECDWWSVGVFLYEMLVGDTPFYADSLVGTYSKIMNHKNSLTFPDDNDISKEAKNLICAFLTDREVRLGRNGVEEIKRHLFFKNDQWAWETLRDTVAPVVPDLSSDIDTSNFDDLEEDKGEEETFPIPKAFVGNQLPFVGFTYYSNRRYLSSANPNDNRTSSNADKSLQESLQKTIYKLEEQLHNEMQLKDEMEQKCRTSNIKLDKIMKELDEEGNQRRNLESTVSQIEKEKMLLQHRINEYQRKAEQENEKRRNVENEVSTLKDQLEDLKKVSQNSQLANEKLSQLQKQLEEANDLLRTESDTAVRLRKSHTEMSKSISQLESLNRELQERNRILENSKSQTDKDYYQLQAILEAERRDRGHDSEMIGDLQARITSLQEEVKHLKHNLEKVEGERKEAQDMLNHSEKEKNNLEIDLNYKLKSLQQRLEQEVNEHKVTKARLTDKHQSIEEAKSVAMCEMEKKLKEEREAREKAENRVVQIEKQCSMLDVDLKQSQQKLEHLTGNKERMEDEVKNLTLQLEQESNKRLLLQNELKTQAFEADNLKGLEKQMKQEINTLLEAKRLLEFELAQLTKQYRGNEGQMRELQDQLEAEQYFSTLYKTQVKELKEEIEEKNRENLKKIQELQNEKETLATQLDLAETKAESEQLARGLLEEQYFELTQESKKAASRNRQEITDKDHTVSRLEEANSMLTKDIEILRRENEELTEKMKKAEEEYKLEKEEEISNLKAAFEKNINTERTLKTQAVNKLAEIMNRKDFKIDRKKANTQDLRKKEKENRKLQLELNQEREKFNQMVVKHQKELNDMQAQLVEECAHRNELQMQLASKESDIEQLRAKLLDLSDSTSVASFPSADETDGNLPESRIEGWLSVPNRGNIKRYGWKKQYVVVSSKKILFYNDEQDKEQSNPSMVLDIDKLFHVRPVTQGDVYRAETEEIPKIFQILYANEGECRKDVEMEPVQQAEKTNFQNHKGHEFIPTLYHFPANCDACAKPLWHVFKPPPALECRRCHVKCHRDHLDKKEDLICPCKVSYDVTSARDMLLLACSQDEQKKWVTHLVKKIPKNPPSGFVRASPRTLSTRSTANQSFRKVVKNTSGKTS
Sequence of UniProt Q86Z02 (whole entry, looked up): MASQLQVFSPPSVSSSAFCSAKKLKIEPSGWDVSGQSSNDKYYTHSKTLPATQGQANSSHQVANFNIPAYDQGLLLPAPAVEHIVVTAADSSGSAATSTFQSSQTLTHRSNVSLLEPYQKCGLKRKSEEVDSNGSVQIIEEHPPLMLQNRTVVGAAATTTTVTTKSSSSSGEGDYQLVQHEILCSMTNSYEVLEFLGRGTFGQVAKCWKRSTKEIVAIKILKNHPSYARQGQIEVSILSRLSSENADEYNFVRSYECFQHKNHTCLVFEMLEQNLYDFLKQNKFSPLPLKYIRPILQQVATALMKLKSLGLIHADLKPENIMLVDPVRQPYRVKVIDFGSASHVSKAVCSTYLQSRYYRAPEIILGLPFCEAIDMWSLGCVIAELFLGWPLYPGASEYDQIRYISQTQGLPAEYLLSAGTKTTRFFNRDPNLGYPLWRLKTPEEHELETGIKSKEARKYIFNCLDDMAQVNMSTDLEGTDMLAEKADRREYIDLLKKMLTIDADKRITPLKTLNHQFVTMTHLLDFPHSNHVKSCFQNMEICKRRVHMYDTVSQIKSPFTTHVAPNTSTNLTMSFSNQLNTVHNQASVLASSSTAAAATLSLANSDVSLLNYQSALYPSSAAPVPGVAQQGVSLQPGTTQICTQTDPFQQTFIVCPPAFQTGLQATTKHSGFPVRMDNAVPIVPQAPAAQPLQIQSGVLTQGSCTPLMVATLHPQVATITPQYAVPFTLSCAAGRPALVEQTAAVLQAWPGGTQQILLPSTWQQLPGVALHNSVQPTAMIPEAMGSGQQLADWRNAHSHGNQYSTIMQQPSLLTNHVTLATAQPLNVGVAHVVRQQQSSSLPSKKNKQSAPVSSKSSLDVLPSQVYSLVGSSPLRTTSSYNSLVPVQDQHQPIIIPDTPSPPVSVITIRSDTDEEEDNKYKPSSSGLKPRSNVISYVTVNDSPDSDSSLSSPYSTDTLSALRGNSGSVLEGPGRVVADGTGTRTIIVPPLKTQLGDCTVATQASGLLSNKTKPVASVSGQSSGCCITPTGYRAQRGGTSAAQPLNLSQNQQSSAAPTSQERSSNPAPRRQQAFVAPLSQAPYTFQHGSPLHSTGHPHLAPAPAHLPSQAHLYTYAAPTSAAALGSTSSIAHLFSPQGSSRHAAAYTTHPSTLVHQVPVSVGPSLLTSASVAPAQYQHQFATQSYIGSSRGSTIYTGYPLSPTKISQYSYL
Sequence of UniProt P07948 (whole entry, looked up): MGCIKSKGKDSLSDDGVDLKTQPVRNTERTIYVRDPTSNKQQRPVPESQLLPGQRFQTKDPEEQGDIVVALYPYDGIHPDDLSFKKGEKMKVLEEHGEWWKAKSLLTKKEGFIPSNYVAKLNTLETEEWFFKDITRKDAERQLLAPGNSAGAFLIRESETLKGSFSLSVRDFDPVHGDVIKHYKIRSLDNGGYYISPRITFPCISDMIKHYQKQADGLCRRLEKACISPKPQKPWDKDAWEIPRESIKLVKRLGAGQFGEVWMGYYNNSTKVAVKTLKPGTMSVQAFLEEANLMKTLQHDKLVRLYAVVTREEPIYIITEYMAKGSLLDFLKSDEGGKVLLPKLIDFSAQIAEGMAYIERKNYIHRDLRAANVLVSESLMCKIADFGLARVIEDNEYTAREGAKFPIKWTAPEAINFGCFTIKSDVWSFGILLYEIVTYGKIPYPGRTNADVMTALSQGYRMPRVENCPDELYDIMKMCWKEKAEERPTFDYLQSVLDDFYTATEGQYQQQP
Sequence of UniProt P29597 (whole entry, looked up): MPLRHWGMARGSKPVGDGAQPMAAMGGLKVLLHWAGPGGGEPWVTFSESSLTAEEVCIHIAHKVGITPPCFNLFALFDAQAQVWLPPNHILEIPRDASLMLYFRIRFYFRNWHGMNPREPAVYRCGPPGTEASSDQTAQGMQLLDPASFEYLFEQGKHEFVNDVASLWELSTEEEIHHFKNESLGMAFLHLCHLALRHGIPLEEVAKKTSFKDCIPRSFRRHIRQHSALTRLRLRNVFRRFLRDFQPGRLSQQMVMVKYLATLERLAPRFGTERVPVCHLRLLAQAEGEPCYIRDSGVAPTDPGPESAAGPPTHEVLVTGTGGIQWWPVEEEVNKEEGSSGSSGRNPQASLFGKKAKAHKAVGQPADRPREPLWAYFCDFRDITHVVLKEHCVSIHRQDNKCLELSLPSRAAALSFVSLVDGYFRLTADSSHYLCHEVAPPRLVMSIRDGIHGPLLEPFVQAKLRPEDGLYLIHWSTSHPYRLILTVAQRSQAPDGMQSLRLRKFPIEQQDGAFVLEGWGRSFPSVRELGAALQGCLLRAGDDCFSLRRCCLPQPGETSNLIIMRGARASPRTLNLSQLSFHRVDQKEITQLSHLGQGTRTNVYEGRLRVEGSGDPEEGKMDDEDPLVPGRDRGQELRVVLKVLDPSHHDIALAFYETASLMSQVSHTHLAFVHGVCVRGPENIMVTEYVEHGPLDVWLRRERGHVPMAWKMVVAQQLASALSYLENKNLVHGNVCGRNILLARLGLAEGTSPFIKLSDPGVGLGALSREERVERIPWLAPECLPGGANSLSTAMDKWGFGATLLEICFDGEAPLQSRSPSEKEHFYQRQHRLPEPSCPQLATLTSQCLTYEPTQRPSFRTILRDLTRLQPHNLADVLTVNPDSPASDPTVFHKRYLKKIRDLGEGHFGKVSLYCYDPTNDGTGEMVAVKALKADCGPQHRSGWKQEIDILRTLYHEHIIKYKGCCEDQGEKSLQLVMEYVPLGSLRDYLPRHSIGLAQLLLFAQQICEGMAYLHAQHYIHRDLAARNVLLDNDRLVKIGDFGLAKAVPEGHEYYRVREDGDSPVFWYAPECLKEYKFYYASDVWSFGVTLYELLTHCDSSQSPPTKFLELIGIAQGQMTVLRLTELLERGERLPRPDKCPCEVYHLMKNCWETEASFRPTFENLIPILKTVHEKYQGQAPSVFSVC
Sequence of UniProt Q6P2M8 (whole entry, looked up): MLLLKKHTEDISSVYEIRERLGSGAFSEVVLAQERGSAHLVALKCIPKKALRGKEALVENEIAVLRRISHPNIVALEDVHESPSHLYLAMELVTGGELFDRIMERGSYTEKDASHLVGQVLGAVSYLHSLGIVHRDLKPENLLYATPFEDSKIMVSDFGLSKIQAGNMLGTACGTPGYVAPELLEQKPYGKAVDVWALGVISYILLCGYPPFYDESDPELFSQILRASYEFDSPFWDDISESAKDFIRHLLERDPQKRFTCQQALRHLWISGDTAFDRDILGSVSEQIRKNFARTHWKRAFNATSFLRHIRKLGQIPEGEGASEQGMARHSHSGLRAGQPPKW

SMILES | tested on | assay | system | conditions | quantity | result
CC1=C(Cc2cn(CCO)nn2)C(=O)c2ccccc2C1=O | L6 | cell growth or viability | – | – | CC50 | 17.6 µM
CCC[C@H](CC)Oc1ccc(C(=O)OC)cc1NC(=O)c1nnn(-c2cc(OC)ccc2OC)c1C | SNU-C4 | cell growth or viability, ATP luminescence | – | 24 h | CC50 | > 30 µM
CC1(F)CN(C(=O)Cn2c(=O)c(C(=O)NCc3ccc(Cl)cc3)cc3nc(N4CCNC4=O)cnc32)C1 | MRC5 | cell growth or viability, CCK-8 | – | – | CC50 | > 40 µM
CC1(CNc2nc(-c3cccs3)nc(Cl)c2-c2c(F)cc([N+](=O)[O-])cc2F)COC1 | HEK293 | cell growth or viability, resazurin | – | 48 h | CC50 | > 50 µM
COC(=O)c1c(C)ncn1CC(c1cn(C)c2ccccc12)c1cn(C)c2ccccc12 | DH82 | cell growth or viability, MTS | – | 24 h | CC50 | > 20 µM
CC1(CNc2nc(-c3cccs3)nc(Cl)c2-c2c(F)cc(N)cc2F)COC1 | HEK293 | cell growth or viability, resazurin | – | 48 h | CC50 | 37.3 µM
COc1cc(-c2cncc3c2CN(C)Cc2cc(N4CCNCC4)ccc2-3)cc(OC)c1OC | Calcium/calmodulin-dependent protein kinase type 1B (PNCK, Homo sapiens, UniProt Q6P2M8) | enzyme activity, inhibitor | – | 1 µM | remaining activity | 106%
O=c1nc(N2CCN(CC3CCCCC3)CC2)sc2c([N+](=O)[O-])cc(C(F)(F)F)cc12 | – | – | CD-1 mouse, plasma | intravenous, 10 mg/kg, 24 h | concentration | 0.74 ng/mL
COc1cc(C)cc2oc(-c3cccc(Br)c3)cc(=O)c12 | HS27 | cell growth or viability, MTT | – | 24 h | CC50 | 104 µM
CC1(C)CN(C(=O)Cn2c(=O)c(C(=O)NCc3ccc(Cl)cc3)cc3nccnc32)C1 | MRC5 | cell growth or viability, CCK-8 | – | – | CC50 | > 40 µM
COc1cc(C)c(-c2c(C)cc(OC)c3c(=O)cc(-c4ccc(N(C)C)cc4)oc23)c2oc(-c3ccc(N(C)C)cc3)cc(=O)c12 | HS27 | cell growth or viability, MTT | – | 24 h | CC50 | > 180 µM
CNCCN1CCN(c2cnc3c(cc(C(=O)NCc4ccc(Cl)cc4)c(=O)n3CC(=O)N3CC(C)(F)C3)n2)C1=O | MRC5 | cell growth or viability | – | – | CC50 | 23.3 µM
Cc1cn(CC(c2cn(C)c3ccccc23)c2cn(C)c3ccccc23)nn1 | DH82 | cell growth or viability, MTS | – | 24 h | CC50 | > 20 µM
CC(C)[C@@H](C)Nc1nc(-c2cccs2)nc(Cl)c1-c1cc(F)cc(F)c1 | HEK293 | cell growth or viability, resazurin | – | 48 h | CC50 | > 50 µM
CC1(F)CN(C(=O)Cn2c(=O)c(C(=O)NCc3ccc(Cl)cc3)cc3nc(N4CCOC4=O)cnc32)C1 | MRC5 | cell growth or viability | – | – | CC50 | 32.6 µM
Fc1cc(F)c(-c2c(Cl)nc(-c3cccs3)nc2NCC2CCC2)c(F)c1 | HEK293 | cell growth or viability, resazurin | – | 48 h | CC50 | > 50 µM
COc1cccc(-c2n[nH]c(SCc3ccccn3)n2)c1OC | – | – | female Sprague-Dawley rat, plasma | intravenous, 1 mg/kg, 1 h, single dose | concentration | 112 ng/mL
C=CC(=O)N1CCC(COCC(=O)N2CCN(c3nc(-c4cnc(N)nc4C(F)F)nc(N4CCOC[C@@H]4C)n3)CC2)CC1 | Rho-associated protein kinase 1 (ROCK1, Homo sapiens, UniProt Q13464) | binding, competition with immobilised ligand | – | 1 µM | remaining binding | 100%
CN1CCN(c2cnc3c(cc(C(=O)NCc4ccc(Cl)cc4)c(=O)n3CC(=O)N3CC(C)(F)C3)n2)C1=O | MRC5 | cell growth or viability | – | – | CC50 | > 40 µM
CNc1ncc2c(/C=C/C(=O)N3CCC(OC)CC3)nn(Cc3cccc(C(F)(F)F)c3)c2n1 | Homeodomain-interacting protein kinase 1 (HIPK1, Homo sapiens, UniProt Q86Z02) | enzyme activity, inhibitor, radiometric | – | 1 µM | remaining activity | 105%
Nc1ccn([C@@H]2O[C@H](CO)[C@@H](O)C2(F)F)c(=O)n1 | HEK293 | cell growth or viability, MTT | – | 0.3125 µg/mL, 24 h | viability | 89.4%
Cc1cc([C@@H](C)Nc2ccccc2C(=O)O)c2nc(N3CCC(F)(F)CC3)c(C#N)c(=O)n2c1 | Non-receptor tyrosine-protein kinase TYK2, JH1 (TYK2, Homo sapiens, UniProt P29597) | binding, competition with immobilised ligand | – | 10 µM | remaining binding | 90%
Nc1cc(F)c(-c2c(Cl)nc(-c3cccs3)nc2NCC2CCC2)c(F)c1 | HEK293 | cell growth or viability, resazurin | – | 48 h | CC50 | 33.9 µM
O=C1CC[C@H](N2Cc3cc(N4CCN(CC5CCN(c6ccc([C@@H]7c8ccc(O)cc8CC[C@@H]7c7ccccc7)cc6)CC5)CC4)ccc3C2=O)C(=O)N1 | – | – | male Sprague-Dawley rat, plasma | oral, 20 mg/kg, fed | AUC(0-inf) | 9790 ng·h/mL
COc1cc(/C=C/c2cc(/C=C/c3ccc(O)c(OC)c3)n(-c3cccc([N+](=O)[O-])c3)n2)ccc1O | WRL68 | cell growth or viability, MTT | – | 48 h | CC50 | > 99 µM
COc1ccc(-c2cc(=O)c3c(OC)cc(C)cc3o2)cc1 | HS27 | cell growth or viability, MTT | – | 24 h | CC50 | > 200 µM

SMILES | tested on | assay | system | conditions | quantity | result
COC(CNC1=CC2=NCCc3c[nH]c(c32)C1=O)c1c[nH]c2ccccc12 (stereo not shown) | HeLa | cell growth or viability, MTT | – | 72 h | CC50 | 2 µM
Fc1cc(F)c(-c2c(Cl)nc(-c3cccs3)nc2NCc2cccnc2)c(F)c1 | HEK293 | cell growth or viability, resazurin | – | 48 h | CC50 | 16.9 µM
CC1(F)CN(C(=O)Cn2c(=O)c(C(=O)NCc3ccc(Cl)cc3)cc3nc(N4CCCC4=O)cnc32)C1 | MRC5 | cell growth or viability, CCK-8 | – | – | CC50 | 16 µM
COc1cc(/C=C/C(=O)C(=Cc2ccc([N+](=O)[O-])cc2)C(=O)/C=C/c2ccc(O)c(OC)c2)ccc1O | WRL68 | cell growth or viability, MTT | – | 48 h | CC50 | 0.53 µM
Nc1nc2c(ncn2COCCO)c(=O)[nH]1 | ARPE-19 | cell growth or viability, neutral red | – | – | CC50 | > 100 µM
COc1cc(C)c(-c2c(C)cc(OC)c3c(=O)cc(-c4ccc(C(F)(F)F)cc4)oc23)c2oc(-c3ccc(C(F)(F)F)cc3)cc(=O)c12 | HS27 | cell growth or viability, MTT | – | 24 h | CC50 | > 200 µM
CC1=C(Cn2cc(C(C)(C)O)nn2)C(=O)c2ccccc2C1=O | L6 | cell growth or viability | – | – | CC50 | 7.27 µM
Nc1nc(O)c2ncn(COC(CO)CO)c2n1 | MRC5 | cell growth or viability, CCK-8 | – | – | CC50 | > 100 µM
Cn1cc2c3c1C(=O)C(NCCc1ccc(O)cc1)=CC3=[N+](C)CC2 | HeLa | cell growth or viability, MTT | – | 72 h | CC50 | 0.78 µM
CC1=C(Cn2ccnn2)C(=O)c2ccccc2C1=O | L6 | cell growth or viability | – | – | CC50 | 6.24 µM
CCC[C@H](CC)Oc1ccc(C(C)(C)C)cc1NC(=O)c1nnn(-c2cc(OC)ccc2OC)c1C | SNU-C4 | cell growth or viability, ATP luminescence | – | 24 h | CC50 | > 30 µM
CC1=C(Cc2cn(Cc3ccccc3)nn2)C(=O)c2ccccc2C1=O | L6 | cell growth or viability | – | – | CC50 | 49.2 µM
COc1cc(C)c(-c2c(C)cc(OC)c3c(=O)cc(-c4ccc(Br)cc4)oc23)c2oc(-c3ccc(Br)cc3)cc(=O)c12 | HS27 | cell growth or viability, MTT | – | 24 h | CC50 | > 200 µM
CCN(O)N=Nc1ccc(S(=O)(=O)Nc2nccs2)cc1 | – | ABTS scavenging | – | 120 µg/mL | inhibition | 38.2%
NCCOCC(=O)NC1CCN(S(=O)(=O)c2cc(C(=O)Nc3cc(F)c(F)c(F)c3)ccc2F)CC1 | HepG2.2.15 | cell growth or viability, CCK-8 | – | 6 days | CC50 | > 100 µM
O=C1c2[nH]cc3c2C(=NCC3)c2c(-c3ccc(O)cc3)c[nH]c21 | HeLa | cell growth or viability, MTT | – | 72 h | CC50 | 0.6 µM
COc1cc(/C=C/C(=O)C(=Cc2ccccc2)C(=O)/C=C/c2ccc(O)c(OC)c2)ccc1O | WRL68 | cell growth or viability, MTT | – | 48 h | CC50 | 0.1 µM
CCCN(O)N=Nc1ccc(S(=O)(=O)Nc2onc(C)c2C)cc1 | – | ABTS scavenging | – | 120 µg/mL | inhibition | 42.6%
COc1cc(C)cc2oc(-c3ccc(C(F)(F)F)cc3)cc(=O)c12 | HS27 | cell growth or viability, MTT | – | 24 h | CC50 | > 200 µM
CC(C)[C@@H](C)Nc1nc(-c2cccs2)nc(Cl)c1-c1c(F)cc(C#N)cc1F | HEK293 | cell growth or viability, resazurin | – | 48 h | CC50 | > 50 µM
COc1cc(/C=C/C(=O)C(=Cc2cccc(O)c2)C(=O)/C=C/c2ccc(O)c(OC)c2)ccc1O | WRL68 | cell growth or viability, MTT | – | 48 h | CC50 | 0.19 µM
CCCCC(=O)Nc1ccc(-c2ccc3ncn(CCC)c(=O)c3c2)cn1 | Tyrosine-protein kinase Lyn (LYN, Homo sapiens, UniProt P07948) | binding, competition with immobilised ligand | – | 0.5 µM | remaining binding | 100%
Cc1cc(O)c2c(=O)cc(-c3ccc(N(C)C)cc3)oc2c1-c1c(C)cc(O)c2c(=O)cc(-c3ccc(N(C)C)cc3)oc12 | HS27 | cell growth or viability, MTT | – | 24 h | CC50 | > 200 µM
Cc1ccc(Cn2cc(C(=O)NN)c(=O)c3cc(Oc4ccccc4)ccc32)cc1 | MRC5 | cell growth or viability | – | – | CC50 | > 20 µM
Fc1cc(F)c(-c2c(Cl)nc(-c3cccs3)nc2N2CCCCCC2)c(F)c1 | HEK293 | cell growth or viability, resazurin | – | 48 h | CC50 | 24 µM
COc1cnc2c(cc(C(=O)NCc3ccc(Cl)cc3)c(=O)n2CC(=O)N2CC(C)(F)C2)n1 | MRC5 | cell growth or viability, CCK-8 | – | – | CC50 | > 40 µM

Excerpt of the above:
SMILES | tested on | assay | system | conditions | quantity | result
Nc1cc(F)c(-c2c(Cl)nc(-c3cccs3)nc2NCC2CCC2)c(F)c1 | HEK293 | cell growth or viability, resazurin | – | 48 h | CC50 | 33.9 µM
O=C1CC[C@H](N2Cc3cc(N4CCN(CC5CCN(c6ccc([C@@H]7c8ccc(O)cc8CC[C@@H]7c7ccccc7)cc6)CC5)CC4)ccc3C2=O)C(=O)N1 | – | – | male Sprague-Dawley rat, plasma | oral, 20 mg/kg, fed | AUC(0-inf) | 9790 ng·h/mL
COc1cc(/C=C/c2cc(/C=C/c3ccc(O)c(OC)c3)n(-c3cccc([N+](=O)[O-])c3)n2)ccc1O | WRL68 | cell growth or viability, MTT | – | 48 h | CC50 | > 99 µM
COc1ccc(-c2cc(=O)c3c(OC)cc(C)cc3o2)cc1 | HS27 | cell growth or viability, MTT | – | 24 h | CC50 | > 200 µM
